Measured values gathered from unrelated publications.
A part holds a random share of what one study measured.
Sequence of UniProt Q9H2G2 (whole entry, looked up): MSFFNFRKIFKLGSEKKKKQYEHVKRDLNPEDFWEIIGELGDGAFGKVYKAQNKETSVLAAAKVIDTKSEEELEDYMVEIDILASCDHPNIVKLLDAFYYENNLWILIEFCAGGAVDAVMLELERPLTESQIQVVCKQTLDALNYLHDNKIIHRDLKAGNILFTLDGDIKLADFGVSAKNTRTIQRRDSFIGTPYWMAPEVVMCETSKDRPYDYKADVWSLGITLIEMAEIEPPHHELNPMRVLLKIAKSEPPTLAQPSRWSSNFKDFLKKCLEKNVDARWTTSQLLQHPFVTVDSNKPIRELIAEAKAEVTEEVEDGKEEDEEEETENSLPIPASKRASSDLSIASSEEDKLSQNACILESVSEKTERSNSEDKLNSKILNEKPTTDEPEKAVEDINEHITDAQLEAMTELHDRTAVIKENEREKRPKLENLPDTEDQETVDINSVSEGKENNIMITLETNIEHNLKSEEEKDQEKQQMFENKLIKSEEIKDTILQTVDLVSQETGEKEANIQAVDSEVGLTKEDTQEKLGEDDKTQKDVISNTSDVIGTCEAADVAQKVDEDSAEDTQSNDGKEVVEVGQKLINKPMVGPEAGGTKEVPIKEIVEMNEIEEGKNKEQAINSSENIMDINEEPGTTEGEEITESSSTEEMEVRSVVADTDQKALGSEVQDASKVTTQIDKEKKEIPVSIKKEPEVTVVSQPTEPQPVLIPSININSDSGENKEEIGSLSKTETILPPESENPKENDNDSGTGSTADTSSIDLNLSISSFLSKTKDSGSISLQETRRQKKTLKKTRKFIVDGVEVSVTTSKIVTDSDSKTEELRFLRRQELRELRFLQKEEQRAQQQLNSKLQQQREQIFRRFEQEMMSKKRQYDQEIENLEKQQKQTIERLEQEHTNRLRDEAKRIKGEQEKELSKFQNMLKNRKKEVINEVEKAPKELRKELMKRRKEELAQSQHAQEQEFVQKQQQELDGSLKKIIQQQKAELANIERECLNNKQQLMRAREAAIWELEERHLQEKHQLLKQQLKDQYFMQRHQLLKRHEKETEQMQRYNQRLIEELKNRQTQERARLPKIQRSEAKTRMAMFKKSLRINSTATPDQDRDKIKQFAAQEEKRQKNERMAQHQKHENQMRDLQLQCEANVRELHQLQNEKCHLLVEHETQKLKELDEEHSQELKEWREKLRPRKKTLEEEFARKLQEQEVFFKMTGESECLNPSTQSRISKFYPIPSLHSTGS
Sequence of UniProt Q9C7I9 (whole entry, looked up): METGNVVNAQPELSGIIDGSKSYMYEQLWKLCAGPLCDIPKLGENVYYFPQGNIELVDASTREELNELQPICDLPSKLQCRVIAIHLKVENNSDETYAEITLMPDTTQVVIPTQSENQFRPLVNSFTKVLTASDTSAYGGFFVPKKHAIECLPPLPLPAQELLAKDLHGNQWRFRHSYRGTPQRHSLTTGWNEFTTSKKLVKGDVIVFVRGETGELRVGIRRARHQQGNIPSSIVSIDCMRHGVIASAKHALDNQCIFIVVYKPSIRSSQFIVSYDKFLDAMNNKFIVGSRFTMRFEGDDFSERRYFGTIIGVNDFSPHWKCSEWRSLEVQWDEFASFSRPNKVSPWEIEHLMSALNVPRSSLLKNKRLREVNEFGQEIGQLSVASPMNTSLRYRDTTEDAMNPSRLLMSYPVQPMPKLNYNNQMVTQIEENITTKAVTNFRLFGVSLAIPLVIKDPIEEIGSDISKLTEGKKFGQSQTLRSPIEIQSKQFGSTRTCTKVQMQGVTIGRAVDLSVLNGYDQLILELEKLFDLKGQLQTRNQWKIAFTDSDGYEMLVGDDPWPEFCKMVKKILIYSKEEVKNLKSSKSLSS
Sequence of UniProt Q9FX25 (whole entry, looked up): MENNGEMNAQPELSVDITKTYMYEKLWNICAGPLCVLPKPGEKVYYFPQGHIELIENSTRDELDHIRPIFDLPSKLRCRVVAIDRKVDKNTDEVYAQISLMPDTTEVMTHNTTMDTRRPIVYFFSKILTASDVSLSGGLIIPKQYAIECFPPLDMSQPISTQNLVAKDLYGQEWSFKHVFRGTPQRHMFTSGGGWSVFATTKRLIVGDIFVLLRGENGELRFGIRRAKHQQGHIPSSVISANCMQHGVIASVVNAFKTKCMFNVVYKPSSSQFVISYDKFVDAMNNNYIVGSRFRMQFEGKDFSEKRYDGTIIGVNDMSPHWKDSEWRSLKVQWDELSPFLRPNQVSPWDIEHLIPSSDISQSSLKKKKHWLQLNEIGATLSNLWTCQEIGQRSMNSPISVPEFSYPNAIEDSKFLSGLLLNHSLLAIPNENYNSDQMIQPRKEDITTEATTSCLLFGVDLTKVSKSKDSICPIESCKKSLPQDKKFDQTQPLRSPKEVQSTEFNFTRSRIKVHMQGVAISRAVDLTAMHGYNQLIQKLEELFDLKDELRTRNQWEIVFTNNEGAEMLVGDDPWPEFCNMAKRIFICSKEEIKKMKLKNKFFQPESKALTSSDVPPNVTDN
Sequence of UniProt Q8TD19 (whole entry, looked up): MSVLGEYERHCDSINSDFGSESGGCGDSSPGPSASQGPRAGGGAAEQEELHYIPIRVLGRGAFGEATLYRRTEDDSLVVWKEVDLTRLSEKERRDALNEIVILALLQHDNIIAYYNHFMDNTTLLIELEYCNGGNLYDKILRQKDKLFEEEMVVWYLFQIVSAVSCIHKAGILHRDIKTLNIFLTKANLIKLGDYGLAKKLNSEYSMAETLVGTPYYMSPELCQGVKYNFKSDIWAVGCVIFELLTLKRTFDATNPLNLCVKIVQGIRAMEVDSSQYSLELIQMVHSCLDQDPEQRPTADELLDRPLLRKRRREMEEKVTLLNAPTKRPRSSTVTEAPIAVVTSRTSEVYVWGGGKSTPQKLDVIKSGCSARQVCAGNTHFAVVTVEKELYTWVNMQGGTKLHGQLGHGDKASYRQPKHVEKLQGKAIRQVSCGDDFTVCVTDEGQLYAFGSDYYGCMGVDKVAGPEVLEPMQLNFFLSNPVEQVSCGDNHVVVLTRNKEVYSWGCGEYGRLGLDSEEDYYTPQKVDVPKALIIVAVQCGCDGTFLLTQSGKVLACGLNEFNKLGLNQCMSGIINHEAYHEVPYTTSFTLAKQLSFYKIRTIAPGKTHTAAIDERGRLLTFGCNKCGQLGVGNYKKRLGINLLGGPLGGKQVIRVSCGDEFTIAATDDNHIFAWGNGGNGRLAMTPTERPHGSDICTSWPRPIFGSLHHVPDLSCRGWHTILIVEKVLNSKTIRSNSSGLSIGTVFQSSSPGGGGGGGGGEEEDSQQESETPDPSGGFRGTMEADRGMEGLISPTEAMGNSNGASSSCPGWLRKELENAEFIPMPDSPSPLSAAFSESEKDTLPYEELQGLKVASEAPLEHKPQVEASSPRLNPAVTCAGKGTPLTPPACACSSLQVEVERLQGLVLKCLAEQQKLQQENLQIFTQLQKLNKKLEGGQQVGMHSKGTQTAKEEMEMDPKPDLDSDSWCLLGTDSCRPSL
Sequence of UniProt Q9H422 (whole entry, looked up): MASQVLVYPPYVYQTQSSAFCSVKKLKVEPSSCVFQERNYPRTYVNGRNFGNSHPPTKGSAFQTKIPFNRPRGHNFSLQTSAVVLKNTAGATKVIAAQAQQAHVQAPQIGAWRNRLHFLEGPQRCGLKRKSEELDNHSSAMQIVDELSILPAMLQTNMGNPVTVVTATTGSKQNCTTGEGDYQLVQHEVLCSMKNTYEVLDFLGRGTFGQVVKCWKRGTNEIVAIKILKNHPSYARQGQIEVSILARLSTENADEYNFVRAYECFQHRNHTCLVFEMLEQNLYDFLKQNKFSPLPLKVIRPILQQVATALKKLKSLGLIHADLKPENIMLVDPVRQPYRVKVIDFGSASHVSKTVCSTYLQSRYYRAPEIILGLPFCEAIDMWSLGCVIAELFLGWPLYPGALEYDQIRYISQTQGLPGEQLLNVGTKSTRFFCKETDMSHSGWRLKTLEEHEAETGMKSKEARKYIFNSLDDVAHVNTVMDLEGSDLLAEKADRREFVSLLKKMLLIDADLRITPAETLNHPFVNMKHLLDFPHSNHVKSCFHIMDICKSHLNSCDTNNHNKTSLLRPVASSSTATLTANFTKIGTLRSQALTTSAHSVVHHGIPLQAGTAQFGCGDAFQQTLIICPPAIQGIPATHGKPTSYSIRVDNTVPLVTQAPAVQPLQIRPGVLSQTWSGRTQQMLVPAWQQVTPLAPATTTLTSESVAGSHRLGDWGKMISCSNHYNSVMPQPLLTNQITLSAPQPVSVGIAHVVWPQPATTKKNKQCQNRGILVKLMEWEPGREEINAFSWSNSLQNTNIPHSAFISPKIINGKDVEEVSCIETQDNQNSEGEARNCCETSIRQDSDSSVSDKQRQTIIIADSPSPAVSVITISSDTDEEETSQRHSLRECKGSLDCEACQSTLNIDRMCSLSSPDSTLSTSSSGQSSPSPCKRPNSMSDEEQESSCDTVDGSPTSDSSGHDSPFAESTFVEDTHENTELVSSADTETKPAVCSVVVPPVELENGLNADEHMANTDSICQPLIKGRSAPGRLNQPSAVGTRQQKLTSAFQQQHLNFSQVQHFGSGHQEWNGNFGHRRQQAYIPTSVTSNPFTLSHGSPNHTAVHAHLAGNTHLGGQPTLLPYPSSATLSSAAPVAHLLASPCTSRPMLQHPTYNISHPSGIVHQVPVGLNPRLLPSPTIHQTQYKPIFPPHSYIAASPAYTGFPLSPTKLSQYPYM
Sequence of UniProt Q8IU85 (whole entry, looked up): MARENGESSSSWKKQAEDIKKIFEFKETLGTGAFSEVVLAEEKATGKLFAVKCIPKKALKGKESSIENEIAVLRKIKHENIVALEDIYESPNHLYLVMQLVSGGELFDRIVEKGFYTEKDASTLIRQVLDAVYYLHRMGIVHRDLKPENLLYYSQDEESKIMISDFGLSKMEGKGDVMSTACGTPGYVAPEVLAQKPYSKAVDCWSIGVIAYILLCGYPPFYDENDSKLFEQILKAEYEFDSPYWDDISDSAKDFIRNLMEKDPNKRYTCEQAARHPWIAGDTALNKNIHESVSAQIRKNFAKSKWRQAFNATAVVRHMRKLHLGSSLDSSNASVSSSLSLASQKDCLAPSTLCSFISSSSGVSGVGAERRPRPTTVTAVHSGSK

Sample 1 — cell line: normal-adjacent organoid sample F; technique: CellTiter-Glo; tested at: 1 µM; notes: replicate mean; relative to: DMSO; measurement: viability
Structure (SMILES) = CN1CCN(Cc2ccc(Nc3ncc(Cl)c(Nc4ccccc4S(=O)(=O)N(C)C)n3)cc2)CC1; value = 0.5%
Structure (SMILES) = Cn1cncc1[C@](O)(COc1ccc(C#N)cc1-c1ccc(OC(F)(F)F)cc1)c1ccc(C#N)cc1; value = 57.3%
Structure (SMILES) = O=C(O)c1ccc(-c2c[nH]c3ncc(-c4ccccc4)cc23)cc1C1CCCC1; value = 101%

Sample 2 — Molecule: B1 (IAA34); technique: two-hybrid; direction: higher = firmer interaction; measurement: positive tests
B1: IAA34 (Arabidopsis thaliana, UniProt Q9C5X0); chain MYCSDPPHPLHLVASDKQQKDHKLILSWKKPTMDSDPLGVFPNSPKYHPYYSQTTEFGGVIDLGLSLRTIQHEIYHSSGQRYCSNEGYRRKWGYVKVTMDGLVVGRKVCVLDHGSYSTLAHQLEDMFGMQSVSGLRLFQMESEFCLVYRDEEGLWRNAGDVPWNEFIESVERLRITRRNDAVLPF
partner = ARF8 699-811 (Arabidopsis thaliana, UniProt Q9FGV1); relative to = out of 2 tests; value = 1
partner = ARF20 484-590 (Arabidopsis thaliana, UniProt Q9C7I9); relative to = out of 2 tests; value = 0
partner = ETT (Arabidopsis thaliana, UniProt O23661); relative to = out of 4 tests; value = 0
partner = ARF13 (Arabidopsis thaliana, UniProt Q9FX25); relative to = out of 2 tests; value = 0

Sample 3 — technique: RNA Bind-n-Seq; form: RNA; sample: in vitro; tested at: 365 nM; relative to: no-protein control; direction: higher = stronger binding; measurement: RBNS enrichment (R)
Target: RNA binding protein fox-1 homolog 2, RRM domain, GST-SBP tag (RBFOX2, Homo sapiens, UniProt O43251-10, residues 100-194)
Notes: natural RNA segment, single round, ends assumed
All sequences stand within: GGGAGUUCUACAGUCCGACGAUC … UGGAAUUCUCGGGUGCCAA
Residues (chain): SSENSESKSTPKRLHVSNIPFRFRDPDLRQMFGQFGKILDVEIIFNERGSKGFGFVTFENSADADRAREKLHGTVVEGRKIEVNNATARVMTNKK
Sequence = UGUGUUCCAUGAUUUUGCUUAAAUUAAUACUUUUAAGUAAUGGAACUUUUUUCAAAGGCAAAUUUAAACUAUUUAAGAAAUAGCUCCUAAUACUUGGGAUCUUGUUUAGA; value = 0.447
Sequence = GCUGAUUACAAAGGGGAAGAGUUGAACAGACAUCAGGGGCCGAUGAAACCAAAGGACUAGGAGUCAGGAGAACAAGUCAGGGAUUAGGAGACAGCGGUUUGGUUUAUUGU; value = 0.921
Sequence = GCGGGUGACUGACUGUUCCCUGAUGAUUUGGCCCACCUCCUGUGUUUGGACCUCUAGGGAGGAGGGUUUUGGUCAUACUCUCCUUAUCCUCGUGCACAGAAAUGCUCAGG; value = 0.94
Sequence = UAGCACGGAGGAGGAGGUGCUGCGUUGGAGGGAGGGGAUCCUCCAGGAGCUCUCUGGAGCCCAUCUAGGAAGCUAGAGUGUGUGGCCCGCCAGGAGCUCAGGAAGGAUAC; value = 0.938
Sequence = CAUCCCCGUGCUCUGGACCCUCCUGGGUUCCUAUCCCAGCCCCGCAGGACGCCGACCCUGCCUGGACGGCCCCGCCUGGACCGCCUGACCUCGGCCCUCCGGACCCGGCU; value = 0.264
Sequence = GGUUUCUGCUUCCAUAUAUUUCCCAGUCAUUUUAAUUAGAGAAGAUACUCUAUGGUAGAACUAAGGCCUUUCCUUUCUUGGCCAAAGUCUUUACCCUAUUUAACCCUUUG; value = 0.852
Sequence = GUGACAACUUCUGGGCCCAGGAGUAAUUUCUCAGCAUUGAGGGUAAAAUAGGAUGGAGUGCUCUGUUGAUCAUUUGGGAGAUGUAGGUUACCUGAUUUGUGCCUUAGGAU; value = 1.19
Sequence = GUGGCUUCUGCAACCAGCCCAUCCGACACGAGAUGGUGACCGCCUUGGGCACUCACUGGCACCCAGAGCAUUUCUGCUGCGUCAGUUGCGGGGAGCCCUUCGGAGAUGAG; value = 0.215

Sample 4 — observed: enzyme activity; mode: inhibitor; tested at: 0.5 µM; relative to: control; measurement: remaining activity
SMILES: CC(C)c1nn(-c2c(Cl)cccc2Cl)c2nc(Cc3ccc(OCCO)cc3)[nH]c(=O)c12
target = CAMK1D (Homo sapiens, UniProt Q8IU85); value = 102%
target = MAP3K8 (Homo sapiens, UniProt P41279); value = 96.4%
target = EGFR (Homo sapiens, UniProt P00533); value = 95.2%
target = GRK5 (Homo sapiens, UniProt P34947); value = 108%
target = SLK (Homo sapiens, UniProt Q9H2G2); value = 86.9%
target = NEK9 (Homo sapiens, UniProt Q8TD19); value = 97.3%
target = HIPK3 (Homo sapiens, UniProt Q9H422); value = 99%

Some of these lines once more (sample 1):
Structure (SMILES) = Cn1cncc1[C@](O)(COc1ccc(C#N)cc1-c1ccc(OC(F)(F)F)cc1)c1ccc(C#N)cc1; value = 57.3%
Structure (SMILES) = CN1CCN(Cc2ccc(Nc3ncc(Cl)c(Nc4ccccc4S(=O)(=O)N(C)C)n3)cc2)CC1; value = 0.5%
Structure (SMILES) = O=C(O)c1ccc(-c2c[nH]c3ncc(-c4ccccc4)cc23)cc1C1CCCC1; value = 101%
